Experimental data gathered from unrelated publications.
Compare with care: the assays were run in different laboratories. Numbers after ± are the reported error.

Cc1cc2ncccc2c2nc(N)n(C)c12  lowest toxic concentration (rat primary midbrain neurons; dopaminergic neuron loss, refers to: TH+ over MAP2+ neurons; 24 h): 200 nM
CCCOC(=O)[C@H](C)NP(=O)(OCCOCn1cnc2c(=O)[nH]c(N)nc21)Oc1cccc2ccccc12 (some centres unmarked)  minimal cytotoxic concentration (HEL; altered cell morphology): ≥ 50 µM
CCCCN(CCCC)N=O  ATP level (HepaRG 2D; cell viability; concentration not given, 24 h; baseline: vehicle): 78.5%
Cn1cnc(S(=O)(=O)N2CCCCN3[C@H](CO)[C@@H](c4ccc(-c5ccc(F)cc5)cc4)[C@@H]3C2)c1  CC50 (HEp-2, uninfected; original sample): 59 µM
CC(C)N(N=O)C(C)C  ATP level (HepaRG 2D; cell viability; concentration not given, 24 h; baseline: vehicle): 82.3%
CC[C@H](C)[C@H](NC(=O)[C@H](CCCCN)NC(=O)[C@H](CCC(=O)O)NC(=O)[C@H](CCCCN)NC(=O)[C@H](CO)NC(=O)[C@H](CCCCN)NC(=O)[C@H](CCCNC(=N)N)NC(=O)[C@H](Cc1ccccc1)NC(=O)[C@H](Cc1ccccc1)NC(=O)[C@H](CC(=O)O)NC(=O)CNC(=O)[C@H](CC(C)C)NC(=O)[C@@H](N)CC(C)C)C(=O)NCC(=O)N[C@@H](CCCCN)C(=O)N[C@@H](CCC(=O)O)C(=O)N[C@@H](Cc1ccccc1)C(=O)N[C@@H](CCCCN)C(=O)N[C@@H](CCCNC(=N)N)C(=O)N[C@H](C(=O)N[C@H](C(=O)N[C@@H](CCC(N)=O)C(=O)N[C@@H](CCCNC(=N)N)C(=O)N[C@H](C(=O)N[C@@H](CCCCN)C(=O)N[C@@H](CC(=O)O)C(=O)N[C@@H](Cc1ccccc1)C(=O)N[C@@H](CC(C)C)C(=O)N[C@@H](CCCNC(=N)N)C(=O)N[C@@H](CC(N)=O)C(=O)N[C@@H](CC(C)C)C(=O)N[C@H](C(=O)N1CCC[C@H]1C(=O)N[C@@H](CCCNC(=N)N)C(=O)N[C@H](C(=O)N[C@@H](CCC(=O)O)C(=O)N[C@@H](CO)C(=O)O)[C@@H](C)O)C(C)C)[C@@H](C)CC)C(C)C)[C@@H](C)CC  hemolysis (rat erythrocytes; concentration not given, 30 min, pH 7.4, 37 °C, together with: Escherichia coli K-235 LPS, 1:5 w/w): inhibited
GRKKRRQRRRPQSWQDLKDH  cytotoxicity (HeLa; MTT; peptide; up to 100 µM, 24 h): not toxic
N/C(=N\O)c1cc(O)c(O)c(O)c1  TD50 (ARPE-19, uninfected; cytotoxicity, CellTiter-Glo; 14 d): 222 ± 13 µM
CCNc1nc(Cl)nc(NC(C)C)n1  LD50 (HEK293; neutral red uptake; 24 h): 4.23 µg/mL
CC(C)C[C@H](NC(=O)[C@H](C)NC(=O)CNC(=O)[C@H](CC(C)C)NC(=O)[C@H](CC(C)C)NC(=O)[C@H](CCCCN)NC(=O)[C@H](CCCCN)NC(=O)[C@H](CC(C)C)NC(=O)[C@H](CC(C)C)NC(=O)[C@H](CCCCN)NC(=O)[C@H](CC(C)C)NC(=O)[C@H](CC(C)C)NC(=O)[C@@H](N)CCCCN)C(=O)NCC(N)=O  minimal hemolytic concentration (human erythrocytes; 1 h, 37 °C, hemolysis ≤5%): 8 µM
Nc1nc2c(ncn2COCCO)c(=O)[nH]1  minimal cytotoxic concentration (HEL; altered cell morphology): > 100 µM
H-HGLASTLTRWAHYNALIRAFGGG-NH2 (C-amide)  internalized peptide (SH-SY5Y; fluorimetry; 1 µM, 2 h, serum-free): ~30%
Clc1cc2c(cc1Cl)Oc1cc(Cl)c(Cl)cc1O2  mRNA fold induction (primary human hepatocytes; refers to: CYP1A1; human; 5 nM, 24 h; baseline: vehicle): 70.5 ± 1.8
CCN(N=O)C(C)C  γH2AX fold increase (HepaRG, 3D spheroids; concentration not given, 24 h, highest tested concentration, hEGF 5 days; baseline: vehicle): 1.5 to 1.8 fold
CC(C)(NP(=O)(OCCOCn1cnc2c(=O)[nH]c(N)nc21)Oc1cccc2ccccc12)C(=O)OCc1ccccc1 (centres unmarked)  minimal cytotoxic concentration (HEL; altered cell morphology): > 50 µM
Cn1c(N)nc2ncc(-c3ccccc3)cc21  threshold concentration (rat primary midbrain neurons; selective dopaminergic neurotoxicity, refers to: TH+ over MAP2+ neurons; 24 h): 1 µM
CCOC(=O)[C@@H](NP(=O)(OCCOCn1cnc2c(=O)[nH]c(N)nc21)Oc1cccc2ccccc12)C(C)C (some centres unmarked)  minimal cytotoxic concentration (HEL; altered cell morphology): > 100 µM
C=C(C[C@H](N)C(=O)O)C(=O)NCc1ccc([N+](=O)[O-])cc1  concentration increasing cytotoxicity (MCF7; 72 h; baseline: vehicle): 320 µM
CC(C)C[C@H](NC(=O)[C@H](CC(C)C)NC(=O)[C@H](CCCCN)NC(=O)[C@H](CC(C)C)NC(=O)[C@H](CC(C)C)NC(=O)[C@H](CCCCN)NC(=O)[C@H](CCCCN)NC(=O)[C@H](CC(C)C)NC(=O)[C@H](CC(C)C)NC(=O)[C@H](CCCCN)NC(=O)[C@H](CC(C)C)NC(=O)[C@H](CC(C)C)NC(=O)[C@@H](N)CCCCN)C(=O)N[C@@H](CCCCN)C(N)=O  minimal hemolytic concentration (human erythrocytes; 1 h, 37 °C, hemolysis ≤5%): 8 µM
CN1C(=O)[C@]23SS[C@@]1(C)C(=O)N2[C@H]1Nc2ccccc2[C@@]1([C@@]12c4ccccc4N[C@@H]1N1C(=O)[C@@]4(C)SS[C@]1(C(=O)N4C)[C@H]2O)[C@@H]3O  IC50 (SF-268; cell growth or viability, SRB): 0.25 µM
C=C(C[C@H](N)C(=O)O)C(=O)NCc1ccccc1  concentration increasing cytotoxicity (MCF7; 72 h; baseline: vehicle): 320 µM
COc1ccccc1/C=N/N=C1\C(=O)Nc2ccccc21  cytotoxic concentration (HUVEC; MTT; 24 and 48 h, 50% cell death): > 100 µg/mL
COc1cc(/C=C/C(=O)OCCc2ccc(O)cc2)ccc1O  IC50 (Hepa-1c1c7; cytotoxicity, crystal violet; 48 h): > 20 µM
CC(C)C[C@H](NC(=O)[C@H](C)NC(=O)[C@H](CCCCN)NC(=O)[C@H](CCCNC(=N)N)NC(=O)[C@H](Cc1ccc(O)cc1)NC(=O)[C@H](CC(C)C)NC(=O)[C@H](CCCNC(=N)N)NC(=O)[C@H](C)NC(=O)[C@H](C)NC(=O)[C@H](CC(C)C)NC(=O)[C@H](CCCCN)NC(=O)[C@H](C)NC(=O)[C@@H](N)Cc1ccccc1)C(=O)N[C@@H](C)C(=O)N[C@@H](CCCNC(=N)N)C(=O)N[C@@H](CCC(N)=O)C(=O)N[C@@H](CC(C)C)C(=O)NCC(=O)N[C@H](C(=O)N[C@@H](C)C(=O)N[C@@H](C)C(N)=O)C(C)C  maximum non-lethal concentration (human pleural mesothelial cells (CRL-9444); LIVE/DEAD calcein-AM/EthD-1; 24 h, 37 °C; baseline: untreated): 300 µM
CC[C@@]12SS[C@]3(C(=O)N1C)[C@@H](O)[C@]1(C45c6ccccc6N[C@@H]4N4C(=O)[C@@]6(CC)SS[C@@]4(C(=O)N6C)[C@H]5O)c4ccccc4N[C@@H]1N3C2=O (some centres unmarked)  IC50 (HT-29; cell growth or viability, SRB): 0.04 µM
CC(C)C[C@H](NCc1ccc(-c2ccccc2)cc1)C(=O)N[C@@H](Cc1c[nH]c2ccccc12)C(=O)NCc1ccccc1  minimum cytotoxic concentration (Vero; cell morphology, microscopy; 5 (unit not given)): ≥ 20 µM
CCN(CC)N=O  ATP level (HepaRG 2D; cell viability; concentration not given, 24 h; baseline: vehicle): 73.3%
COC(=O)[C@H](C)NP(=O)(OCCOCn1cnc2c(=O)[nH]c(N)nc21)Oc1ccccc1 (some centres unmarked)  minimal cytotoxic concentration (HEL; altered cell morphology): > 100 µM
COc1cccc2c1C(=O)c1c(O)c3c(c(O)c1C2=O)C[C@@](O)(C(=O)CO)C[C@@H]3O[C@H]1C[C@H](N)[C@H](O)[C@H](C)O1  mitochondrial distribution (MCF7/ADR; flow cytometry; isolated mitochondria; 10 µg/mL equivalent): < 5%
O=NN1CCN(C2CCCC2)CC1  ATP level (HepaRG 2D; cell viability; concentration not given, 24 h; baseline: vehicle): 70.8%
CC[C@H](C)[C@H](NC(=O)[C@H](C)NC(=O)[C@H](CCCCN)NC(=O)[C@H](CC(C)C)NC(=O)[C@H](C)NC(=O)[C@@H](NC(=O)[C@H](Cc1cnc[nH]1)NC(=O)[C@H](CC(C)C)NC(=O)[C@@H](NC(=O)[C@@H](NC(=O)[C@H](CCCCN)NC(=O)[C@H](CCCCN)NC(=O)[C@H](C)NC(=O)[C@H](CO)NC(=O)[C@H](CCCCN)NC(=O)[C@H](Cc1ccccc1)NC(=O)[C@@H](NC(=O)[C@H](CCCCN)NC(=O)[C@H](CC(C)C)NC(=O)[C@H](Cc1ccccc1)NC(=O)[C@H](CO)NC(=O)[C@H](CCCCN)NC(=O)[C@H](Cc1c[nH]c2ccccc12)NC(=O)[C@H](CCCCN)NC(C)=O)[C@@H](C)O)[C@@H](C)O)C(C)C)[C@@H](C)O)C(=O)N[C@@H](CO)C(=O)N[C@@H](CO)C(N)=O  minimal haemolytic concentration (human erythrocytes; 1 h, 37 °C): 250 µg/mL
CC(O)[C@@]12SS[C@]3(C(=O)N1C)[C@@H](O)[C@]1([C@@]45c6ccccc6N[C@@H]4N4C(=O)[C@]6(C)SS[C@]4(C(=O)N6C)[C@H]5O)c4ccccc4N[C@@H]1N3C2=O (some centres unmarked)  IC50 (HT-29; cell growth or viability, SRB): 0.01 µM
CC[C@H](C)[C@H](NC(=O)[C@H](CC(=O)O)NC(=O)[C@H](Cc1ccccc1)NC(=O)[C@H](CC(C)C)NC(=O)CN)C(=O)N[C@H](C(=O)N[C@@H](CCCCN)C(=O)N[C@@H](CCCCN)C(=O)N[C@H](C(=O)N[C@H](C(=O)N[C@@H](CCCCN)C(=O)N[C@@H](CC(C)C)C(=O)N[C@@H](CC(C)C)C(=O)N[C@@H](CCCCN)C(N)=O)C(C)C)C(C)C)C(C)C  minimal hemolytic concentration (human erythrocytes; 1 h, 37 °C, hemolysis ≤5%): 32 µM
CC[C@@]12SS[C@]3(C(=O)N1C)[C@@H](O)C1(C45c6ccccc6N[C@@H]4N4C(=O)[C@]6([C@@H](C)O)SS[C@]4(C(=O)N6C)[C@H]5O)c4ccccc4N[C@@H]1N3C2=O (some centres unmarked)  IC50 (SF-268; cell growth or viability, SRB): 0.38 µM
C=CC[C@H](NC(=O)CCl)C(=O)N[C@@H](Cc1c[nH]c2ccccc12)C(=O)NCc1ccccc1  minimum cytotoxic concentration (Vero; cell morphology, microscopy; 5 (unit not given)): 100 µM

Repeated from above:
COc1cc(/C=C/C(=O)OCCc2ccc(O)cc2)ccc1O  IC50 (Hepa-1c1c7; cytotoxicity, crystal violet; 48 h): > 20 µM
CC(C)C[C@H](NC(=O)[C@H](C)NC(=O)[C@H](CCCCN)NC(=O)[C@H](CCCNC(=N)N)NC(=O)[C@H](Cc1ccc(O)cc1)NC(=O)[C@H](CC(C)C)NC(=O)[C@H](CCCNC(=N)N)NC(=O)[C@H](C)NC(=O)[C@H](C)NC(=O)[C@H](CC(C)C)NC(=O)[C@H](CCCCN)NC(=O)[C@H](C)NC(=O)[C@@H](N)Cc1ccccc1)C(=O)N[C@@H](C)C(=O)N[C@@H](CCCNC(=N)N)C(=O)N[C@@H](CCC(N)=O)C(=O)N[C@@H](CC(C)C)C(=O)NCC(=O)N[C@H](C(=O)N[C@@H](C)C(=O)N[C@@H](C)C(N)=O)C(C)C  maximum non-lethal concentration (human pleural mesothelial cells (CRL-9444); LIVE/DEAD calcein-AM/EthD-1; 24 h, 37 °C; baseline: untreated): 300 µM
CC[C@@]12SS[C@]3(C(=O)N1C)[C@@H](O)[C@]1(C45c6ccccc6N[C@@H]4N4C(=O)[C@@]6(CC)SS[C@@]4(C(=O)N6C)[C@H]5O)c4ccccc4N[C@@H]1N3C2=O (some centres unmarked)  IC50 (HT-29; cell growth or viability, SRB): 0.04 µM
CC(C)C[C@H](NCc1ccc(-c2ccccc2)cc1)C(=O)N[C@@H](Cc1c[nH]c2ccccc12)C(=O)NCc1ccccc1  minimum cytotoxic concentration (Vero; cell morphology, microscopy; 5 (unit not given)): ≥ 20 µM
